Published values collected from several papers.
A part holds a random share of what one study measured. Substitutions count along the parent as printed.

Series 1
Target: ABI1, truncated, D143A, DHFR fusion (Arabidopsis thaliana)
Technique: DHFR PCA, deep sequencing
Sample: yeast
Notes: methotrexate growth selection, single substitutions
Added: (+)-ABA 0.0091 µM
Baseline: wild-type fitted maximum
Direction: higher = stronger binding
Endpoint: relative binding score
Starting sequence: PYL1, truncated, DHFR fusion (Arabidopsis thaliana); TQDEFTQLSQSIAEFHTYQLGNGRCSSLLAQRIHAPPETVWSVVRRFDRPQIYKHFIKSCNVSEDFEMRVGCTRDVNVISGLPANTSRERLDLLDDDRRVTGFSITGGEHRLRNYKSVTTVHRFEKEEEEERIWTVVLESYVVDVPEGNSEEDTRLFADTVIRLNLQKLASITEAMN; partner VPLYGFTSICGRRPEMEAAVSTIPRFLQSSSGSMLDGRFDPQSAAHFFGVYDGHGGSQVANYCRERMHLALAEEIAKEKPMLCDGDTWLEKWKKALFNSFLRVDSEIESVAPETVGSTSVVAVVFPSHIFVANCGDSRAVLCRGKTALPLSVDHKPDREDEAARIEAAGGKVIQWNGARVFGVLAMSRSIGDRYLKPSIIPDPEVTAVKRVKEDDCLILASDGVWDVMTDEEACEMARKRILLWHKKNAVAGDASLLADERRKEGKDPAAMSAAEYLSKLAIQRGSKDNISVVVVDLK
Change = V43W; result = -4.29%
Change = T106G; result = 3.16%
Change = R113P; result = 92.5%
Change = L28Q; result = -1.12%
Change = K168I; result = -5.08%
Change = R46M; result = 3.51%
Change = V40I; result = -3.81%
Change = R32C; result = 15.7%
Change = I172M; result = -0.752%
Change = C72Y; result = 1.3%
Change = S9R; result = 57.9%
Change = S27C; result = 2.15%
Change = S150G; result = 0.111%
Change = V161Y; result = 15.7%
Change = L8A; result = -2.48%
Change = E109S; result = 3.59%
Change = T73I; result = 37.4%
Change = A170K; result = 48.7%
Change = H55S; result = 6.72%
Change = E131M; result = 33.7%
Change = V44N; result = -1.1%
Change = V40P; result = -1.42%
Change = Y53W; result = 51.1%
Change = A175F; result = 0.864%
Change = Q2Y; result = 73.9%

Series 2
Target: RNA binding protein fox-1 homolog 2, RRM domain, GST-SBP tag (RBFOX2, Homo sapiens, UniProt O43251-10, residues 100-194)
Technique: RNA Bind-n-Seq
Form: RNA
Sample: in vitro
Tested at: 365 nM
Notes: natural RNA segment, single round, ends assumed
Baseline: no-protein control
Direction: higher = stronger binding
Endpoint: RBNS enrichment (R)
Shared flanks, not repeated: GGGAGUUCUACAGUCCGACGAUC … UGGAAUUCUCGGGUGCCAA
Residues (chain): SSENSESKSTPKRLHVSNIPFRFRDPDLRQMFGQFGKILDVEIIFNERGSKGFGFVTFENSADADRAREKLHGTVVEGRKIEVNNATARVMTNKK
Oligonucleotide = UUUUGAGCUAAAAAUAAAAGUUAAUUUCAUACUAUAUAGAUUUUCUUUUUUAUCUUGUAUGUCCCCCUCUUAGUCUGCUGAGCUUUUGUUUUGCUUGGUUUUCAGUGAUA; result = 0.601
Oligonucleotide = UCCCCUCUGCACUCUCUCACAGGGACAAACUUGCAGAUACAUCCGAUAGGGUCUUGGCUUUCUACUGUCCUUAUUUCUAGAUUAUUUCCUUGUAAGUUGGAAAGAAUGUU; result = 0.251
Oligonucleotide = AAAUGAAGGCUCCCAUGAGUCUUCACUAGAAAGAUGUGGUCCCCAUCCCCACCCUGACUGAGACCUGUGAAGAUGCAGAGUGGCAGGGAAGGUCACAGAGCUCCACCACC; result = 0.272
Oligonucleotide = CACCGCCCCCACCCCACCCUCAGGCUGGAGCUCUGGGUGUGGGCAGGGACUGUGGCCCUGGAUUGCCCUCACUUGGGCCUCUGUCACACCGGGUUCCCCUCUGGAGCCAC; result = 0.204
Oligonucleotide = GAGAAAUAGGAACACUUUCACACUGUUGGUGGGACUGUAAACUAGUUCAACCAUUGUGGAAGUCAGUGUGGCGAUUCCUCAGGGAUCUAGAACUGGAAACACCAUUUGAC; result = 0.278
Oligonucleotide = GUGGAUACUGCAUGUGAACUAUGGUUUUGAACUCUUCCUCCUCCUCCUUGAGAGCCCCGCCCUGCGCCCGCGUGGUGCCUGCCUGCCAGGCCUGGGGCGUGCAGCCGGGG; result = 9.15
Oligonucleotide = GUGUGGGCCCUGGAGGGGAAGGAGAGGUGCUUCCCCCAGCCCCCAGCCAGGCUGGGGAGCAGAGCAACCAGCACAGCAUGGCUGCUGCCCUUUUAUUUAUUGGACCAGAA; result = 1.18
Oligonucleotide = UUGUCCAACACCAGCCCUGACCCAAGUCCAAAUGUUUACAGGGAGCCUCCUGCCUACCCCACUCUCUGCCGCUCGGAGGCCCCAAAGGAAAAAGCACAAGAAGCGUGAGA; result = 0.711
Oligonucleotide = GUGUCAACAGAUGCAUUCAUUUCUCUUGGAAUGUGUAUUGUUUUUAUUUUGCGAAACAAAACAAAACAAAAAAAAAAGCUUGGAACUCCAUCACGUGGAAAAACUAGAUC; result = 0.801
Oligonucleotide = UUUUAGCCUAACCCUGAUCCCUUAACUGGUGCACCCCAGCCCCCGUGUUCGGGGCUCCCACCAUCUGUCCAGCCUUCUUGGCCACCAGCUCUGUCCCUCCUUCCUAGAUA; result = 0.667
Oligonucleotide = AUUGUAACGCCUAAUAAUAUUUCUGUGAGCCUUUAAUGUGAUUUAUAAGAUGGCCGAAUUACUGAAAUCACCAUUAUACCUCUUCCAUAAAACGACUCCAAAGUUAGACC; result = 0.486
Oligonucleotide = GUUCUCCAAGAAGCAGACGUUGGUCUAAGCCUUCAAGAGCUGCCUUAGGGUUUGGGAGAAGUUGGAAUUAACCCAAGGUCAAGUCCUUUCUUUUGCCUCCGAGAUGACCA; result = 0.259

Series 3
Target: Interferon regulatory factor 5, full length, phosphomimetic (IRF5, Homo sapiens, UniProt Q13568-2, residues 1-514, S451D/S453D/S456D/S462D)
Technique: protein-binding microarray
Form: double-stranded DNA, one strand shown
Sample: in vitro
Tested at: 940 nM top
Notes: 60-bp whole probe
Added: salmon DNA 0.4 mg/ml
Baseline: random background probes
Direction: higher = stronger binding
Endpoint: fitted relative affinity
Shared flanks, not repeated: GCCTAGCAC … GTCTTGATTCGCTTGACGCTGCTG
Oligonucleotide = TTAGGTATCGGTATTGGTTAGTGCTAG; result = 8.92 z-score
Oligonucleotide = GACGATCTCAAACTGGAGACGTGCTAG; result = -0.42 z-score
Oligonucleotide = AAAAATTAGTGTTTCCCCTAGTGCTAG; result = 0.558 z-score
Oligonucleotide = TCCTCTCTCTTTCCACTTGTGTGCTAG; result = 2.69 z-score
Oligonucleotide = TTAGCTTTCAGACTGGATTAGTGCTAG; result = -0.0966 z-score
Oligonucleotide = TCACCTCACAGTTTGTAACTGTGCTAG; result = 0.096 z-score
Oligonucleotide = TCACATCTTCCTCTGCCACTGTGCTAG; result = 1.22 z-score
Oligonucleotide = GACGATTTCGTGTATCGAGACGTGCTA; result = 0.114 z-score
Oligonucleotide = GATGATATCAGTTTCGAGACGTGCTAG; result = 4.06 z-score
Oligonucleotide = GACGAACTGAGCTTCGAGACGTGCTAG; result = -0.657 z-score
Oligonucleotide = CTGCCTCACATTGCTAAGACGTGCTAG; result = 0.187 z-score
Oligonucleotide = TTAGGTTTCCTAATGCTTTAGTGCTAG; result = 0.567 z-score
Oligonucleotide = TCACTTCTTGAACTCTTACTGTGCTAG; result = 1.1 z-score
Oligonucleotide = GACGGTATCGGGGCTGGGGACGTGCTA; result = 3.4 z-score
Oligonucleotide = TAGTATATACACTTATGACTGTGCTAG; result = -0.233 z-score
Oligonucleotide = TCAAATTCCAAGTTCATACTGTGCTAG; result = 0.575 z-score
Oligonucleotide = GACTGACTGGGTCTCGGGACGTGCTAG; result = -0.0789 z-score
Oligonucleotide = TTAGATCTCAGTCTCGATAAGTGCTAG; result = 2.75 z-score
Oligonucleotide = GACGGACTGCTATTGCTGACGTGCTAG; result = -0.598 z-score
Oligonucleotide = TTAGATATCAGCTTCGATTAGTGCTAG; result = -0.121 z-score
Oligonucleotide = GAGGGTATCGGGTATCGGGACGTGCTA; result = 3.89 z-score
Oligonucleotide = AACGGTTCCGGTTTCGGGACGTGCTAG; result = 5.29 z-score
Oligonucleotide = GACGGTATCGGGAATGGGGACGTGCTA; result = 3.34 z-score

Series 4
Target: RING finger protein unkempt homolog, zinc fingers 1-6, SBP tag (UNK, Homo sapiens, UniProt Q9C0B0, residues 30-357)
UniProt Q9C0B0, sequence (30-357, looked up): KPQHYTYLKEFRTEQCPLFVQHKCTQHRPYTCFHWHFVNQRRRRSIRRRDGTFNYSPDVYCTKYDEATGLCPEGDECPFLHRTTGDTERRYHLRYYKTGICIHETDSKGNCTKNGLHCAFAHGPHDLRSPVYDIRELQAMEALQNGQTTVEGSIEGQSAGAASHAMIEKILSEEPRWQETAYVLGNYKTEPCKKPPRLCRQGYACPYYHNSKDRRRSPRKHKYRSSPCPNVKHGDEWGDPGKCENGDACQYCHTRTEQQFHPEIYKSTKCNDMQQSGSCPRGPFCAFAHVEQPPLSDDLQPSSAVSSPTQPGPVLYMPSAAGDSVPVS
Technique: RNA Bind-n-Seq
Form: RNA
Sample: in vitro
Tested at: 100 nM
Notes: RNA with constant flanks, vertebrate orthologous sites, ends assumed
Baseline: input RNA pool
Direction: higher = stronger binding
Endpoint: bound/input enrichment
Shared flanks, not repeated: GGGAGUUCUACAGUCCGACGAUC … CAACAGAGGAUUGAGCAUCA
Oligonucleotide = UUUAUUGAUCAGGUCUGUAAAAUGUGUACUGAAAAAAUCAGAGUUUAUUUAUAAACAGAAUAGUUUAUUUAAACAGAAAGUCUUUCCUCAUUGGUAUUGUGGUAUGCAUUAAUUCCAUUU; result = 0.102 ratio
Oligonucleotide = GUUUUUUAAUUUAUUUUUCUUUCCUUUUUUUUUUUCGGGGGUAAAGUUUGCUCUACCAAAUAGUGAUCGUAACAAACUGAUCUGUUAUGGAUGUUGCUAUAGUGACAUGCAAUUAUAUAU; result = 1.97 ratio
Oligonucleotide = AUAUUCACUCAAUUGAAAUUAUUUAGAUAAGAGAAAUUAUUGUUUAUGUUUUCUUUCAAGGAGUUUAUCCUAUUUUUAUCCAUUUGCAAAUGCCGGUUUUGCGUGGUUUCUUAUCAUAUC; result = 0.759 ratio
Oligonucleotide = GGACCAUACAUAUACAAUGUGUAUCAAAUGCUGGUUGUAAAAUUAAACCAUCAUCUAGAAUAGAGUUAAUUUGUUAUAAUCAAGUUACAAAUAGGUUUUCUUAAACCAGAGAUGCACCGC; result = 0.502 ratio
Oligonucleotide = UGGGUUACUCCUAUUAUUAUCAAGUAGCUGGAAUUGUGAAGGUCGGAGUAGUUAGAUCUUAGCUUUUAUUCCUUAUUUUUUUGUAUUACUCUUCAUGUGUAUAAAUUAUUGAUCAUGUUG; result = 3.9 ratio
Oligonucleotide = CUCUACGGGCCUCGCAGAGUGGAAAUAAUGGAAGAGGAAAGUGAACAGUAAUCUUCAUUUUAGUAUUUAUGCUUAGGUGUGAAAUAAAUGUUAUUUGUUGAUCAUUUCUAUAACCCAGAG; result = 0.573 ratio
Oligonucleotide = AGCAACUCAAGGAUUCAGAACUGGGUUUACAAAUGUCCCAAGCAGAUAUGGAACAAACACUCGUGGUCAAUCCCGACCAUAAUAAACAGCAUUAUUUAUUGUACUUAAGGGUAUUGACUU; result = 0.39 ratio
Oligonucleotide = GUAUUCGUUCCAUACCAGCAUAUAACCUCUCGUUUGUGCACAGCUUCAAAUGUUACCGUCUAGUAAGAUUUUUAUUUAAAAUAUGAAAACUGCUUUUCCAAGACGUUUUUAAAAACAAAG; result = 0.488 ratio
Oligonucleotide = ACAGGAGCAGCAUAGGCUGUUUGAGCUUUGGAGAAACGAGCUUUGCUUUUUAUAUUUAACUAGGAUACUUUUACGUGAUGGGUGCUUUGAGUGUGAAUGCAGCAGGCUCUUGUUUCCGAG; result = 0.925 ratio
Oligonucleotide = UUGCCUACAAUAAUGAAAACCUAUAGAAAUUUUUUUUUUAAUUUUUCAUUUCUCAUUAGGCAUAGUCUUUUUUUCCCCAGGCAGAUCAUUCUGAGUGUGCGAGUGUGUGUGCACAUGUUA; result = 0.662 ratio
Oligonucleotide = GCACAUGCCGCUAUCACCAAAAGCAAAGUGCCAUUUUUCAAAUUUCAUUCAGAGCCGUUCUAGUGUUUCCUAUUCCCUGCCCUUCCCAUUACUUUCAGUGAUGAAAGUUCUCCUCUGACA; result = 1.61 ratio

Series 5
Target: CCND3, cyclin fold, Cln2 fusion (human)
Technique: yeast growth competition, sequencing
Sample: yeast
Notes: weak parent motif
Baseline: not given
Direction: higher = stronger binding
Endpoint: normalised enrichment score
Starting sequence: PKN2 docking peptide (human); VSAVRKLDFSDTM; partner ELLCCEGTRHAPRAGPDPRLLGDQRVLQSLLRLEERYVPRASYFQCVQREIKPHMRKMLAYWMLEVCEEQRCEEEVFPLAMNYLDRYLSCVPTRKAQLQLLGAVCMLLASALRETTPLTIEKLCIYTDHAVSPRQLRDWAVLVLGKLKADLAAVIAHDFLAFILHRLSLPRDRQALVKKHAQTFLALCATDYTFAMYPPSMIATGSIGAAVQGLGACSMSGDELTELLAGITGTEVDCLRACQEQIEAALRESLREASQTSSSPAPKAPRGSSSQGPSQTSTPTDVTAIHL
Change = D11V; result = 0.592
Change = D8M; result = 0.029
Change = K6D; result = -0.119
Change = R5D; result = -0.0624
Change = A3I; result = -0.0721
Change = V4D; result = -0.232
Change = S10Q; result = 0.758
Change = A3D; result = -0.15
Change = L7D; result = -0.0425
Change = K6S; result = 0.485
Change = A3G; result = 0.146
Change = D8W; result = 0.24
Change = F9T; result = -0.0318
Change = F9G; result = 0.488
Change = D11E; result = 0.935
Change = V4N; result = 0.438
